Assay results from different studies.
Lines come from different studies, so protocols differ.

Structure (SMILES) | organism | assay | test system | setting | MIC
CC1(C)SC2C(NC(=O)C(NC(=O)C3=C(O)C(c4ccccc4)NC3=O)c3ccccc3)C(=O)N2C1C(=O)O (centres unmarked) | Escherichia coli | broth microdilution | ATCC 35218, low-level TEM-1 | no clavulanic acid | > 200 µg/mL
Cc1ccccc1C(=O)NN=Cc1ccc(O)c(Br)c1 | Cryptococcus neoformans | – | – | compound alone, with: tunicamycin | 1 µg/mL
O=C(CCCCc1ccccc1)CP(=O)(O)O | Streptococcus pneumoniae | – | – | – | > 200 µg/mL
CC1(C)SC2C(NC(=O)C(NC(=O)C3=C(O)C(Cc4ccco4)NC3=O)c3ccccc3)C(=O)N2C1C(=O)O (centres unmarked) | Escherichia coli | broth microdilution | JW0790-2 fiu deletion mutant | ferric iron uptake gene | 6.25 µg/mL
N=C(N)NCCC[C@H](NC(=O)[C@H](Cc1c[nH]c2ccccc12)NC(=O)[C@H](CCCNC(=N)N)NC(=O)[C@H](Cc1c[nH]c2ccccc12)NC(=O)[C@H](Cc1c[nH]c2ccccc12)NC(=O)[C@H](Cc1c[nH]c2ccccc12)NC(=O)[C@H](CCCNC(=N)N)NC(=O)[C@H](Cc1c[nH]c2ccccc12)NC(=O)[C@@H](N)CCCNC(=N)N)C(N)=O | Candida albicans | broth microdilution | CGMCC 2.209, RPMI 1640-MOPS | 48 h, 30 °C, with: ZnCl2 8 µM | 8 µM
CC(C)CC1NC(=O)C(C(=O)NC(C(=O)NC2C(=O)N3C2SC(C)(C)C3C(=O)O)c2ccccc2)=C1O (centres unmarked) | Escherichia coli | broth microdilution | Keio mutant JW5086-3 | 18 h, ferrienterobactin permease gene | 25 µg/mL
CC[C@H](C)[C@H](NC(=O)CN)C(=O)NCC(=O)N[C@@H](CCCCN)C(=O)N[C@@H](Cc1ccccc1)C(=O)N[C@@H](CC(C)C)C(=O)N[C@@H](CCCCN)C(=O)N[C@@H](CCCCN)C(=O)N[C@@H](C)C(=O)N[C@@H](CCCCN)C(=O)N[C@@H](CCCCN)C(=O)N[C@@H](Cc1ccccc1)C(=O)NCC(=O)N[C@@H](CCCCN)C(=O)N[C@@H](C)C(=O)N[C@@H](Cc1ccccc1)C(=O)N[C@H](C(=O)N[C@@H](CCCCN)C(=O)N[C@H](C(=O)N[C@@H](CC(C)C)C(=O)N[C@@H](CCCCN)C(=O)N[C@@H](CCCCN)C(N)=O)[C@@H](C)CC)C(C)C | Salmonella typhimurium | broth dilution | SL1344 | – | 6.3 µM
CC[C@H](C)[C@H](NC(=O)CN)C(=O)NCC(=O)N[C@@H](C)C(=O)N[C@H](C(=O)N[C@@H](CC(C)C)C(=O)N[C@@H](CCCCN)C(=O)N[C@H](C(=O)N[C@@H](CC(C)C)C(=O)N[C@H](C(=O)N[C@H](C(=O)NCC(=O)N[C@@H](CC(C)C)C(=O)N1CCC[C@H]1C(=O)N[C@@H](C)C(=O)N[C@@H](CC(C)C)C(=O)N[C@H](C(=O)N[C@@H](CO)C(=O)N[C@@H](Cc1c[nH]c2ccccc12)C(=O)N[C@H](C(=O)N[C@@H](CCCCN)C(=O)N[C@@H](CCCNC(=N)N)C(=O)N[C@@H](CCCCN)C(=O)N[C@@H](CCCNC(=N)N)C(=O)N[C@@H](CCC(N)=O)C(=O)N[C@@H](CCC(N)=O)C(N)=O)[C@@H](C)CC)[C@@H](C)CC)[C@@H](C)O)[C@@H](C)O)C(C)C)C(C)C | Candida albicans | broth microdilution | SP3876, RPMI 1640-MOPS | 48 h, 30 °C | 2 µM
CC1(C)S[C@@H]2[C@H](NC(=O)[C@H](N)c3ccccc3)C(=O)N2[C@H]1C(=O)O | Escherichia coli | broth microdilution | Keio mutant JW2142-1 | – | 6.25 µg/mL
CC[C@H](C)[C@H](NC(=O)[C@H](CCCCN)NC(=O)[C@@H](NC(=O)[C@H](Cc1ccc(O)cc1)NC(=O)[C@H](CCCCN)NC(=O)[C@H](CCCCN)NC(=O)CNC(=O)[C@H](CCCCN)NC(=O)[C@@H](NC(=O)[C@H](C)NC(=O)[C@H](CC(C)C)NC(=O)[C@H](Cc1c[nH]c2ccccc12)NC(=O)CNC(=O)[C@@H](NC(=O)[C@H](Cc1ccccc1)NC(=O)[C@H](CCCCN)NC(=O)[C@H](CC(C)C)NC(=O)[C@H](Cc1ccccc1)NC(=O)[C@H](C)NC(=O)CNC(=O)[C@@H](N)CCSC)C(C)C)[C@@H](C)O)C(C)C)C(=O)N[C@@H](C)C(=O)N[C@@H](Cc1c[nH]c2ccccc12)C(=O)N[C@@H](CC(=O)O)C(=O)N[C@@H](Cc1c[nH]cn1)C(=O)N[C@@H](CCCCN)C(=O)NCC(=O)N[C@H](C(=O)N[C@H](C(=O)N[C@@H](CCSC)C(=O)N[C@@H](CCCCN)C(=O)N[C@@H](Cc1c[nH]c2ccccc12)C(=O)N[C@@H](CC(C)C)C(=O)N[C@@H](CC(N)=O)C(=O)N[C@@H](C)C(=O)NCC(=O)N[C@@H](CCC(N)=O)C(=O)N[C@H](C(=O)N[C@@H](Cc1ccccc1)C(=O)N[C@H](C(=O)N[C@@H](Cc1c[nH]c2ccccc12)C(=O)N[C@H](C(=O)N[C@@H](Cc1ccc(O)cc1)C(=O)N[C@@H](CCC(=O)O)C(=O)N[C@@H](CCC(N)=O)C(=O)N[C@H](C(=O)N[C@@H](CCCCN)C(=O)N[C@@H](CCCCN)C(=O)N[C@@H](CC(C)C)C(=O)N[C@@H](Cc1c[nH]c2ccccc12)C(=O)N[C@H](C(=O)O)[C@@H](C)O)[C@@H](C)CC)C(C)C)[C@@H](C)O)[C@@H](C)O)[C@@H](C)CC)[C@@H](C)O | Listeria seeligeri | broth microdilution | CECT 917 | 37 °C | 2.6 µg/mL
N=C(N)c1cccc(OCc2ccc(COc3cccc(C(=N)N)c3)cc2)c1 | Escherichia coli | – | BW25113 mcr-1 | in combination, checkerboard, with: rifampicin | 50 µg/mL
CCN1CCN(C(=O)N[C@@H](C(=O)N[C@@H]2C(=O)N3[C@@H]2SC(C)(C)[C@@H]3C(=O)O)c2ccccc2)C(=O)C1=O | Escherichia coli | broth microdilution | Keio mutant JW0146-2 | 18 h, ferric hydroxamate uptake gene | 3.12 µg/mL
CCCCCCCC/C=C\CCCCCCCC(=O)NS(=O)(=O)NCCC | Streptococcus pneumoniae | – | – | – | > 200 µg/mL
Cc1ccc2[nH]c3c(c2c1)CCCC3NCCc1ccc(Br)cc1 (centres unmarked) | Staphylococcus simulans | broth microdilution | 22 | – | 4 µg/mL
[O-][N+]1=C(c2ccc(Cl)cc2)C2=NCCN2c2ccccc21 | Clostridioides difficile | – | – | – | 0.125 to 0.25 µg/mL
CC(C)C[C@H](NC(=O)[C@H](CCCNC(=N)N)NC(=O)[C@H](Cc1c[nH]c2ccccc12)NC(=O)[C@H](CCCNC(=N)N)NC(=O)[C@H](Cc1c[nH]c2ccccc12)NC(=O)[C@H](Cc1c[nH]c2ccccc12)NC(=O)[C@H](Cc1c[nH]c2ccccc12)NC(=O)[C@H](CCCNC(=N)N)NC(=O)[C@H](Cc1c[nH]c2ccccc12)NC(=O)[C@@H](N)CCCNC(=N)N)C(N)=O | Candida albicans | – | CGMCC 2.209 | no added salts | 8 µM
O=C(NN=Cc1ccc(O)c(Br)c1)c1cccc(Br)c1 | Cryptococcus neoformans | – | – | compound alone, with: tunicamycin | 0.3 µg/mL
O=C(CCCCC1CCCCC1)CP(=O)(O)O | Streptococcus pneumoniae | – | – | – | > 200 µg/mL
CC[C@H](C)[C@H](N)C(=O)N[C@@H](CCCNC(=N)N)C(=O)N[C@H](C(=O)N[C@@H](Cc1c[nH]c2ccccc12)C(=O)N[C@@H](Cc1ccccc1)C(=O)N[C@H](C(=O)N[C@@H](CCCCN)C(=O)N[C@H](C(=O)N[C@@H](CCCNC(=N)N)C(=O)N[C@@H](CCCCN)C(=O)N[C@@H](Cc1c[nH]c2ccccc12)C(=O)N[C@@H](CCCCN)C(=O)N[C@@H](C)C(=O)N[C@H](C(=O)N[C@@H](Cc1ccc(O)cc1)C(=O)N[C@@H](Cc1c[nH]cn1)C(=O)N[C@H](C(N)=O)[C@@H](C)O)[C@@H](C)CC)C(C)C)[C@@H](C)CC)C(C)C | Salmonella typhimurium | broth dilution | SL1344 | – | 100 µM
CC1(C)SC2C(NC(=O)C(NC(=O)C3=C(O)C(Cc4ccc(O)cc4)NC3=O)c3ccccc3)C(=O)N2C1C(=O)O (centres unmarked) | Escherichia coli | broth microdilution | Keio mutant JW5195-1 | 18 h | 25 µg/mL
N=C(N)NCCC[C@H](NC(=O)CN)C(=O)N[C@@H](Cc1c[nH]c2ccccc12)C(=O)N[C@@H](CCCNC(=N)N)C(=O)N[C@@H](Cc1c[nH]c2ccccc12)C(=O)N[C@@H](Cc1c[nH]c2ccccc12)C(=O)N[C@@H](Cc1c[nH]c2ccccc12)C(=O)N[C@@H](CCCNC(=N)N)C(=O)N[C@@H](Cc1c[nH]c2ccccc12)C(=O)N[C@@H](CCCNC(=N)N)C(=O)N[C@@H](Cc1c[nH]c2ccccc12)C(N)=O | Candida albicans | – | CGMCC 2.209 | no added salts | 4 µM
CCCCCCCC(=O)CP(=O)(O)O | Streptococcus pneumoniae | – | – | – | > 200 µg/mL
CC1(C)SC2C(NC(=O)C(NC(=O)C3=C(O)CN(c4ccccc4)C3=O)c3ccccc3)C(=O)N2C1C(=O)O (centres unmarked) | Escherichia coli | broth microdilution | isolate IU, CTX-M-14, TEM-1 | no clavulanic acid | > 200 µg/mL
CC(C)[C@H](NC(=O)[C@H](CCCNC(=N)N)NC(=O)[C@H](Cc1c[nH]c2ccccc12)NC(=O)[C@H](CCCNC(=N)N)NC(=O)[C@H](Cc1c[nH]c2ccccc12)NC(=O)[C@H](Cc1c[nH]c2ccccc12)NC(=O)[C@H](Cc1c[nH]c2ccccc12)NC(=O)[C@H](CCCNC(=N)N)NC(=O)[C@H](Cc1c[nH]c2ccccc12)NC(=O)[C@H](CCCNC(=N)N)NC(=O)CN)C(N)=O | Candida albicans | broth microdilution | 58288, RPMI 1640-MOPS | 48 h, 30 °C | 8 µM
CC1(C)SC2C(NC(=O)C(NC(=O)C3=C(O)C(Cc4ccccc4)NC3=O)c3ccccc3)C(=O)N2C1C(=O)O (centres unmarked) | Escherichia coli | broth microdilution | Keio mutant JW2142-1 | – | 12.5 µg/mL
CC(C)C[C@@H]1NC(=O)[C@@H](Cc2ccccc2)NC(=O)[C@H](CCN)NC(=O)[C@@H](NC(=O)[C@H](CCN)NC(=O)[C@@H](N)[C@@H](C)O)CCNC(=O)[C@H]([C@@H](C)O)NC(=O)[C@H](CCN)NC(=O)[C@H](CCN)NC1=O | Escherichia coli | – | mcr-1 | – | > 200 µg/mL

Repeated from above:
Structure (SMILES) | organism | assay | test system | setting | MIC
Cc1ccc2[nH]c3c(c2c1)CCCC3NCCc1ccc(Br)cc1 (centres unmarked) | Staphylococcus simulans | broth microdilution | 22 | – | 4 µg/mL
[O-][N+]1=C(c2ccc(Cl)cc2)C2=NCCN2c2ccccc21 | Clostridioides difficile | – | – | – | 0.125 to 0.25 µg/mL
CC(C)C[C@H](NC(=O)[C@H](CCCNC(=N)N)NC(=O)[C@H](Cc1c[nH]c2ccccc12)NC(=O)[C@H](CCCNC(=N)N)NC(=O)[C@H](Cc1c[nH]c2ccccc12)NC(=O)[C@H](Cc1c[nH]c2ccccc12)NC(=O)[C@H](Cc1c[nH]c2ccccc12)NC(=O)[C@H](CCCNC(=N)N)NC(=O)[C@H](Cc1c[nH]c2ccccc12)NC(=O)[C@@H](N)CCCNC(=N)N)C(N)=O | Candida albicans | – | CGMCC 2.209 | no added salts | 8 µM
O=C(NN=Cc1ccc(O)c(Br)c1)c1cccc(Br)c1 | Cryptococcus neoformans | – | – | compound alone, with: tunicamycin | 0.3 µg/mL
